Values quoted from earlier work that unrelated publications cite.
Each numbered part shows a few of the values that one paper quotes.
Sequence of UniProt O14965 (whole entry, looked up): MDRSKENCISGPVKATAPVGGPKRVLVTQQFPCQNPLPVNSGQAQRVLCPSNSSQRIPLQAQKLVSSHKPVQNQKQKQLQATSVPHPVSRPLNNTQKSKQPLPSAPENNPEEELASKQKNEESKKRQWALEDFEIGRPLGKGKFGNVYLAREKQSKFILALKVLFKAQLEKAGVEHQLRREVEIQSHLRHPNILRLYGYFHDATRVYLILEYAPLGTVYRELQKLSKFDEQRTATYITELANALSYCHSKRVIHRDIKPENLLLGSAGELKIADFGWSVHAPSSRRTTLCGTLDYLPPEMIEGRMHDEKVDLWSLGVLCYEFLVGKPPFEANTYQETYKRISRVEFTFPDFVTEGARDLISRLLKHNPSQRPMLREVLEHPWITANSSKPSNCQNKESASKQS

Series 1 — organism: Cryptosporidium parvum; technique: high-throughput screen; concentration: concentration not given
Under activity, `Cl.O=C(O)/C=C/c1ccc(Cn2ccnc2)cc1` is recorded as “inactive”.
`C[C@@H]1C[C@H]2[C@@H]3C[C@H](F)C4=CC(=O)C(Cl)=C[C@]4(C)[C@@]3(F)[C@@H](O)C[C@]2(C)[C@@]1(O)C(=O)CO` — result for activity: “inactive”.
For `O=C1C(CC[S+]([O-])c2ccccc2)C(=O)N(c2ccccc2)N1c1ccccc1` (centres unmarked), activity read “inactive”.
`NS(=O)(=O)c1cc(C2(O)NC(=O)c3ccccc32)ccc1Cl` (centres unmarked) — result for activity: “inactive”.
Under activity, `CC1CNc2c(cccc2S(=O)(=O)N[C@@H](CCCNC(=N)N)C(=O)N2CC[C@@H](C)C[C@@H]2C(=O)O)C1` (some centres unmarked) is recorded as “inactive”.

Mixed results
With `CO[C@H]1CC[C@H](CNc2ccc(S(=O)(=O)NC(=O)c3ccc(N4CCN(CC5=C(c6ccc(Cl)cc6)CC(C)(C)CC5)CC4)cc3Oc3cnc4[nH]ccc4c3)cc2[N+](=O)[O-])CC1` the EC50 was 6 nM (BCL2; cell-based).
`CCn1cc(-c2ccnc3[nH]c(-c4cccc(CN(C)C)c4)cc23)c(-c2ccc(NC(=O)N(C)C)cc2)n1` gave a selectivity ratio of over 250 fold (Aurora kinase A (AURKA, Homo sapiens, UniProt O14965); reference: AURKB over AURKA).
The IC50 of `COc1cc(-c2cn(C3CCc4c(F)cccc4N(CC(F)(F)F)C3=O)nn2)ccc1-n1cnc(C)c1` (centres unmarked) is reported as 13 nM (SLC6A4).
The IC50 of `CCn1c(-c2nonc2N)nc2c(C#CC(C)(C)O)ncc(OC[C@H]3CCCNC3)c21` is reported as 2 nM (AKT; enzyme activity).
`O=C1CCc2cc(Nc3cc(OC4CCOCC4)c([N+](=O)[O-])cc3Cl)ccc2N1` gave an IC50 of 100 nM (BCL6 (human); enzyme activity).
`CCOCCn1cc(C(=O)Nc2ccc(-n3nc(-c4cccnc4)cc3C(F)(F)F)cn2)ccc1=O` gave an IC50 of 7 nM (EPHX2; biochemical activity).

A few entries again (mixed results):
With `CO[C@H]1CC[C@H](CNc2ccc(S(=O)(=O)NC(=O)c3ccc(N4CCN(CC5=C(c6ccc(Cl)cc6)CC(C)(C)CC5)CC4)cc3Oc3cnc4[nH]ccc4c3)cc2[N+](=O)[O-])CC1` the EC50 was 6 nM (BCL2; cell-based).
